# Published values pooled from the literature.
# Numbered parts are unrelated; each lists some results of a single study. Positions count from the first letter of the parent shown.

# Block 1 — method: DHFR PCA, deep sequencing; matrix: yeast; with: (+)-ABA 0.39 µM; reference: wild-type fitted maximum; reading: higher = stronger binding
# Target: ABI1, truncated, D143A, DHFR fusion (Arabidopsis thaliana)
# Notes: methotrexate growth selection, single substitutions
# Starting sequence: PYL1, truncated, DHFR fusion (Arabidopsis thaliana); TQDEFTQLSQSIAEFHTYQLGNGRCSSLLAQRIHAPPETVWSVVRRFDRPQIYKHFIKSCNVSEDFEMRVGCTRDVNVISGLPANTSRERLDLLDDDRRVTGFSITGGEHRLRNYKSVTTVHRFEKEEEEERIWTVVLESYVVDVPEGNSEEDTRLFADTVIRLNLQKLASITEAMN; partner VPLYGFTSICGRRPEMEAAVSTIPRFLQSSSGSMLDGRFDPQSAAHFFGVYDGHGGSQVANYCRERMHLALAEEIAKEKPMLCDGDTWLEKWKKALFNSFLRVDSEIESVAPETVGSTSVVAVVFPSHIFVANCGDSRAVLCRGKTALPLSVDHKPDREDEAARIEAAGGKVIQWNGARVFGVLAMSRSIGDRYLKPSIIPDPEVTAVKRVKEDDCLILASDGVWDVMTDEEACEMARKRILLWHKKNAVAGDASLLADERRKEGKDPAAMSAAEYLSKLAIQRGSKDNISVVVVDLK
Substitution,relative binding score [%]
N77I,51.1
H34Q,45.3
F157D,-5.71
I33L,-4.72
L29D,-1.26
H110G,23.1
N22L,35.6
S27V,1.03
A30G,17
E125T,45.3
T135K,-2.53
A170L,-20.9
I133H,47.4
E14N,4.74

# Block 2 — method: protein binding microarray; form: double-stranded DNA, one strand shown; matrix: in vitro; tested at: not given; reference: not given; reading: higher = stronger binding
# Target: Histone acetyltransferase KAT6A, winged helix 1, GST fusion (KAT6A, Homo sapiens, UniProt Q92794, residues 1-85)
# Notes: 8-mer, flanks averaged, mean of 2 arrays, mostly near background
# Construct (chain): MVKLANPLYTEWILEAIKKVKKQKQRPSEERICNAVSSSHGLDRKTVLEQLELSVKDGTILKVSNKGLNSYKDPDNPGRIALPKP
Sequence,E-score
AAGAATCC,-0.0773
GAGCCGAC,0.29
CCGACCCG,0.374
CCGTCCTC,0.177
AATGTGAA,-0.143
CTGCGCGC,0.41
CACCCGAG,-0.0172
GGTACAGA,0.044
CTACACTC,-0.0844
ATTCTATC,-0.196
CAGATGAA,-0.211
ACGTCGGG,0.283
CCGACAGA,0.146
ATGTCGAC,-0.236
ACGGTTAT,0.167
TCACGCAA,-8.5e-05
ATTATTTC,-0.071
TGAAACAA,-0.249
CGAGTGGC,-0.0139
ATAACCCC,-0.0699
GCTCTCCC,0.13
ACATTCCG,0.102
ATCTCGTG,-0.216
CAAGCTTA,0.0314

# Block 3 — method: protein-binding microarray; form: double-stranded DNA, one strand shown; matrix: in vitro; tested at: not given; reading: higher = stronger binding
# Target: Myc proto-oncogene protein, bHLH-zipper, MAX partner unstated (MYC, Homo sapiens, UniProt P01106, residues 368-449)
# Sequence of UniProt P01106 (368-449, looked up): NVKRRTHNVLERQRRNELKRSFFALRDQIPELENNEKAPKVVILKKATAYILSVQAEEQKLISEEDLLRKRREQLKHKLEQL
# Notes: k-mer, scored over probes, only values ≥0.25
Sequence,E-score
GTGCTTTA,0.259
CGTGTTTA,0.377
CCTTGTGC,0.282
CCGCCACA,0.267
ACACGTTG,0.413
ACCCCATG,0.394
GCATGGTA,0.423
ATGCCTCG,0.292
CGCACCCA,0.297
CATGCTCA,0.376
CACCACCC,0.297
ACCACGCT,0.428
ACGTGCCA,0.431
CACATGTA,0.453
ACGTGATG,0.4
CACTCACG,0.251
CGTGCCCC,0.383
CACGACGC,0.266
GACCACGA,0.381

# Block 4 — target: CCND1, cyclin fold, Cln2 fusion (human); method: yeast growth competition, sequencing; matrix: yeast; notes: weak parent motif; reference: not given; reading: higher = stronger binding
# Starting sequence: PLK5 docking peptide (human); IFRKVGQRLLTQC; partner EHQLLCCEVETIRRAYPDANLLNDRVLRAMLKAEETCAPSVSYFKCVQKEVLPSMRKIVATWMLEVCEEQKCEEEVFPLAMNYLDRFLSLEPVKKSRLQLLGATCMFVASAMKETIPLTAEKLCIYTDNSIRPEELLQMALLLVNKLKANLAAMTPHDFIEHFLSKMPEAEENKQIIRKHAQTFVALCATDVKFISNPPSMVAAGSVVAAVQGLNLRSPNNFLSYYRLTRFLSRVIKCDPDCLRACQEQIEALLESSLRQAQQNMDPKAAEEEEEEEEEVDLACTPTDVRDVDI
Substitution,normalised enrichment score
I1A,0.328
T11A,0.664
L9A,0.58
G6A,0.337
F2A,0.464
R3A,0.25

# Block 5 — target: CEBPA, bZIP domain (human); method: DHFR protein complementation; matrix: yeast; reference: wild-type JUN-FOS pair; reading: higher = stronger binding
# Notes: single substitutions, most at no-binding floor
# Starting sequence: JUN, bZIP domain (human); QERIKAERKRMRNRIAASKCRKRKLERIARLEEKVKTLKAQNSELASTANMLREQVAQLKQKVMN; partner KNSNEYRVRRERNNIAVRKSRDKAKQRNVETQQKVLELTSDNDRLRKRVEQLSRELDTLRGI
Substitution,binding fitness [natural log]
K34A,-1.43
T48I,-1.36
T37D,-1.46
L38S,-1.47
E33K,-1.37
N42I,-1.58
S47W,-1.27
S43M,-1.42
L31G,-1.4
V35R,-1.4
Q55H,-1.48
Q55I,-1.47
K36S,-1.47
L45G,-1.52

# Block 6 — method: aptamer microarray, sandwich; form: DNA with 2'F-ANA; matrix: in vitro; tested at: 200 nM; with: Cy3 exosite-II aptamer, 400 nM; reading: higher = stronger binding; sequence: GGTTGGTGTGGTTGG
# Target: Prothrombin, mature alpha-thrombin (F2, Homo sapiens, UniProt P00734)
# Notes: whole 15-mer aptamer, many near background
Modification,mean fluorescence intensity [a.u.]
2'F-ANA at 1 2 4 8 9 11 12 13,170
2'F-ANA at 5 6 8 9 10 12 14,50.9
2'F-ANA at 2 3 6 8 13 15,590
2'F-ANA at 1 2 3 4 10 13,52.7
2'F-ANA at 4 5 7 8 9 10 13 14,48.7
2'F-ANA at 1 2 6 7 9 10 15,50.8
2'F-ANA at 1 2 3 4 9 11 12 13,192
2'F-ANA at 2 5 6 7 8 9 10 11 14 15,47.3
2'F-ANA at 4 5 6 7 8 10,48.3
2'F-ANA at 1 4 5 6 7 8 9 10 11 15,50
2'F-ANA at 3 6 7 9 11 13 14 15,506
2'F-ANA at 2 6 8 12 13,445
2'F-ANA at 1 2 3 5 6 8 10 11,50.9
2'F-ANA at 1 4 7,148
2'F-ANA at 1 4 6 7 8 9 12 14 15,58.6
2'F-ANA at 1 9 10 11 13 14,94.8
2'F-ANA at 1 2 3 7 9 10 11 12 13 14,54
2'F-ANA at 1 2 3 5 6 7 8 9 11 14 15,49.8
2'F-ANA at 1 2 3 9 10 11 12 13 14 15,53.7
2'F-ANA at 1 3 5 7 11,53.7
2'F-ANA at 3 7 10 11 13 14 15,394
2'F-ANA at 2 4 6 7 8 12 13,406
2'F-ANA at 2 3 4 5 6 12 13,117
2'F-ANA at 1 2 3 4 5 6 7 9 14 15,46.3
2'F-ANA at 1 2 3 4 5 6 7 8 10 12 14 15,46.3

# Block 7 — method: universal PBM; form: double-stranded DNA, one strand shown; matrix: in vitro; tested at: not given; reading: higher = stronger binding
# Target: Sal-like protein 4, full length isoform B (SALL4, Homo sapiens, UniProt Q9UJQ4-2, residues 1-616)
# Notes: 8-mer, flanks averaged, mean of replicates
Sequence,E-score
AGGGGATG,-0.132
AGCTCCCG,-0.353
AGTGTGTA,0.0402
AATGAGGT,0.191
AACCCATC,-0.136
AAGGGAGA,-0.00233
AAGCTAGC,-0.0179
AATAGGTG,0.132
ACCTTAAC,0.126
AGTACAAC,0.128
CGGTAGGA,-0.171
ATCACAGG,-0.0679
ACCGGTTG,-0.266
GCACGCAC,-0.218
ATCTATGC,0.115
CCCTCGAA,-0.0721
ACGCTTTG,-0.0414

# Block 8 — method: RNA Bind-n-Seq; form: RNA; matrix: in vitro; tested at: not given; reference: input RNA pool; reading: higher = stronger binding
# Target: RING finger protein unkempt homolog, zinc fingers 1-6, GST-SBP tag (UNK, Homo sapiens, UniProt Q9C0B0, residues 30-357)
# Notes: RNA with constant flanks, human-mouse chimeric sites, ends assumed
# All sequences stand within: GGGAGUUCUACAGUCCGACGAUC … CAACAGAGGAUUGAGCAUCA
# Target sequence (chain): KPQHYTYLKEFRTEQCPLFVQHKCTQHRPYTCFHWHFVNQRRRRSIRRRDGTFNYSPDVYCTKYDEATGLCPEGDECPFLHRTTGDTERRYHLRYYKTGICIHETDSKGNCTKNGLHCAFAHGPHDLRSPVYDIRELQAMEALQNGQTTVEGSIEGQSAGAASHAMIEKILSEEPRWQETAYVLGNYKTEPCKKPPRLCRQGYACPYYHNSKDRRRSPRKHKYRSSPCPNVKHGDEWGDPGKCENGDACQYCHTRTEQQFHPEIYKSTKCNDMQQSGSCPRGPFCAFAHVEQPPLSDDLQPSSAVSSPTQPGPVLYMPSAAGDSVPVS
Sequence,bound/input enrichment
UUUCUAUUGCAGCAAACGAUGCUAAGAAUUAAGGAUCCUAAGAAGUCCCUGGAUUUUUAUACGAGGGUUCUUGGACUGACCCUCCUGCAGAAGCUUGAUUUUCCCAUUAUGAAGUUCUCG,0.263 ratio
GAGCGUCUCGCUCGAACUGGGAUCAUCGUGACCACUAGUGAGGCUGUUCUGCUUCAGCUGGUGGCUGACAAAGACCACCCGAAGUUCAAGGAAAUUCAGAACCUAAUUAAGGCGAGUGCC,0.0833 ratio
GCUCUUGGCAAUGUAAUCAGCGCCUUGGGGGACAAGAGCAAGAGAGCCACCCAUGUCCCUUACAGAGACUCUAAGCUGACAAGACUCUUGCAGGAUUCCCUUGGGGGUAAUAGCCAAACC,0.172 ratio
CCCUCCCCGGGCCACCCACCCCUCCCGGCUCCCCGCCGAGAUCCAGGUUUCUUCUUAUUUCAUAGCAAGCCAGAACAAUGUUCUACGCACAUUUUGUUCUCAGUAAACGAGGGCCUCUGG,0.747 ratio
CACAGAGCAGCACCUACCUCCUCCUUCUUUCCACACCUGCAAACUCUUUUGCCUGGGCUGAAUAUUUAGUGUAAUUACAUCUCAGCUUUGAGGGCUCCUGUGGCAAAUUCCCGGAUUAAA,0.422 ratio
GUAAUGUUUAUUCAUUUAACUUAUUUUUAUAGCUAGAUAAAUAUUGUUAGUCUUAGACAAUAGCUCACAUUUUUUGAGAAGCAUGCCCUCCCUGUCCAUUGGGCCCAUAACAUGACCCAG,14.5 ratio
AGCGUUCAGGAAUUCAUGACCUUUACAAGUCAACUGAUUGUGGAACGCUCGGGGAAAGGCAGCAGAGCUUCUGUCAAAGAACAAGAGUAUCUUUGCCAUGUCUACGUCCGGAGCGACAGU,0.108 ratio
UUACCCGAGAACGAGGAUGAGCUGGAGAGCACCAACAGGCGCUACACCAAGAGGGACUGCAGCACUUUCCUCAGAACUAGUGAGACGGGCAUUGUGGAUCAGGUUAUGGUCACUCUCAAC,0.13 ratio
UUACCCGAGAACGAGGAUGAAUUGGAGAGCACCAACAGGCGCUACACCAAGAGGGACUGCAGCACUUUCCUCAGAACUAGUGAGACGGGCAUUGUGGACCAGGUCAUGGUCACUCUCAAC,0.207 ratio

# Some of these lines once more (block 3):
Sequence,E-score
CGTGTTTA,0.377
GACCACGA,0.381
GTGCTTTA,0.259
CACATGTA,0.453
CGCACCCA,0.297
ACGTGCCA,0.431
ACACGTTG,0.413
ACCCCATG,0.394
CACGACGC,0.266
GCATGGTA,0.423
CCTTGTGC,0.282
CATGCTCA,0.376
